# Measured values of several laboratories.
# Protocols differ between the studies behind these lines. Numbers after ± are the reported error.
# U2AF2: U2AF2 148-342 (Homo sapiens, UniProt P26368)
# Chain of UniProt P26368 (whole entry, looked up): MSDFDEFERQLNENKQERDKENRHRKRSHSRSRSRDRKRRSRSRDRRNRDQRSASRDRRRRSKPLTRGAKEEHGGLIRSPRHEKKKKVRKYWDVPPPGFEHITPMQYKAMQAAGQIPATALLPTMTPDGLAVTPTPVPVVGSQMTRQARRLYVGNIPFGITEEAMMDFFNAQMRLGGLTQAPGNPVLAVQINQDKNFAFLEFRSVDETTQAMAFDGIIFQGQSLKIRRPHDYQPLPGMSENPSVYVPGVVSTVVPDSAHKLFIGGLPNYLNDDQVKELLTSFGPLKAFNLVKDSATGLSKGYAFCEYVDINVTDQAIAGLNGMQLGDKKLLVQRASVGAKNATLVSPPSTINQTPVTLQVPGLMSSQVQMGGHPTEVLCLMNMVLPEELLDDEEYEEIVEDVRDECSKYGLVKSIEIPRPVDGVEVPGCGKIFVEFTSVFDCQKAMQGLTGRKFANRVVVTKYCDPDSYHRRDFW
# WT1: WT1 323-438 (Homo sapiens, UniProt P19544)
# Chain of UniProt P19544 (whole entry, looked up): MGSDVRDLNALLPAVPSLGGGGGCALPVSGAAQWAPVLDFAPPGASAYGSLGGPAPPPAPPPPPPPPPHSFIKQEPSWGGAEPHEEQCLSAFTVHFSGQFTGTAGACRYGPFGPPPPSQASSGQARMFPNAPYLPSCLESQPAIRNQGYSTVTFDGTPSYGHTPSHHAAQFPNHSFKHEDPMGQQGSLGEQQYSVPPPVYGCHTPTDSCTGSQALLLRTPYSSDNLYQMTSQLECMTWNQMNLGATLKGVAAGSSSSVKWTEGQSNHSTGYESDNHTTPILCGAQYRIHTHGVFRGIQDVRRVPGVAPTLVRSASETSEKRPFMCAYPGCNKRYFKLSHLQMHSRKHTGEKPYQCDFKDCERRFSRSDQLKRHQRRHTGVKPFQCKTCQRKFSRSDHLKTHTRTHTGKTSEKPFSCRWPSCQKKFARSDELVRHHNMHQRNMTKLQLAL
# ihfA/ihfB 1-98; 1-95: ihfA/ihfB 1-98; 1-95 (Aggregatibacter actinomycetemcomitans)
# T1: ihfA/ihfB 1-98; 1-95 (Aggregatibacter actinomycetemcomitans); chain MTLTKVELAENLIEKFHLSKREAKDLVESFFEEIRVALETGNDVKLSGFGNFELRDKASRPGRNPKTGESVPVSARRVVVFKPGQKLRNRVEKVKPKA; chain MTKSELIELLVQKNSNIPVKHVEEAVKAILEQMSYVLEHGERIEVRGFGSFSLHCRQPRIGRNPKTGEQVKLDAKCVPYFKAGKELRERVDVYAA
# Chain of UniProt Q43349 (whole entry, looked up): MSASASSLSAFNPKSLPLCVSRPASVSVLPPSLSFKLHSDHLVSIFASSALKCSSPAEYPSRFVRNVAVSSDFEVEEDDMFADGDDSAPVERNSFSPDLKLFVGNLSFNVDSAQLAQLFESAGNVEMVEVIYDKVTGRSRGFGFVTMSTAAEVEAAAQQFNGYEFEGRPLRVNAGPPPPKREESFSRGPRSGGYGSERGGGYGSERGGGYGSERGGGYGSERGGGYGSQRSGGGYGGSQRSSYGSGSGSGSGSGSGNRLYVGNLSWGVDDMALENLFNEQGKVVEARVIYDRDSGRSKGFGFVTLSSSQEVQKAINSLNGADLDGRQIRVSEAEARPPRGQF
# Chain of UniProt P13393 (whole entry, looked up): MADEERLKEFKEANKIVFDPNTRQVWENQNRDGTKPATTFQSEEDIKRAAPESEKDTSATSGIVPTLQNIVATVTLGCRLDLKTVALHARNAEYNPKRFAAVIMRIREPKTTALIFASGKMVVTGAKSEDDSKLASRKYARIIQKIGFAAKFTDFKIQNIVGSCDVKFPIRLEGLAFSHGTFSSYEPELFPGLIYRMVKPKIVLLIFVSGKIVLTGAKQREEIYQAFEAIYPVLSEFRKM
# Chain of UniProt Q9H165 (whole entry, looked up): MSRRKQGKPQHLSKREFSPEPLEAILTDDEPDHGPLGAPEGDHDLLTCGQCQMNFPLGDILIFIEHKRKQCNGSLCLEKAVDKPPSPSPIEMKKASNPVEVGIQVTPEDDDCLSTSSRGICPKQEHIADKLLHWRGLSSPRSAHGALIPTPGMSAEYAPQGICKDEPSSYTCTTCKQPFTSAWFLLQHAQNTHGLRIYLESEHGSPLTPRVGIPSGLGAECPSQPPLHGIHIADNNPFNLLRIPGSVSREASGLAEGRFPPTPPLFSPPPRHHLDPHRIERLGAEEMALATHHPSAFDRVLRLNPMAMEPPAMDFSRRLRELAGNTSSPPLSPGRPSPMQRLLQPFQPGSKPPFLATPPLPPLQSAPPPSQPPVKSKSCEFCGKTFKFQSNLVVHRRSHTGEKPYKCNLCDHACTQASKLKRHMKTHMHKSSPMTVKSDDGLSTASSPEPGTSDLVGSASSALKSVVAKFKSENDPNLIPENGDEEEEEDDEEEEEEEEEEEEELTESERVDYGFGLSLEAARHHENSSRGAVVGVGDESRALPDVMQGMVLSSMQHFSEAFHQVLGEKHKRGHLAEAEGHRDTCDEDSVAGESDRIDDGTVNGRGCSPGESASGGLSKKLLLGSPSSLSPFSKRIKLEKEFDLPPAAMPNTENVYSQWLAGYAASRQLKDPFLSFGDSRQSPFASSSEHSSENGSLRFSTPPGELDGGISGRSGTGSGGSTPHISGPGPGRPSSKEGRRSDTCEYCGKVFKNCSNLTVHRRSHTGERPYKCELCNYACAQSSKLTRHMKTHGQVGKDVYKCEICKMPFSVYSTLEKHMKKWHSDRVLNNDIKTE
# Chain of UniProt Q01543 (whole entry, looked up): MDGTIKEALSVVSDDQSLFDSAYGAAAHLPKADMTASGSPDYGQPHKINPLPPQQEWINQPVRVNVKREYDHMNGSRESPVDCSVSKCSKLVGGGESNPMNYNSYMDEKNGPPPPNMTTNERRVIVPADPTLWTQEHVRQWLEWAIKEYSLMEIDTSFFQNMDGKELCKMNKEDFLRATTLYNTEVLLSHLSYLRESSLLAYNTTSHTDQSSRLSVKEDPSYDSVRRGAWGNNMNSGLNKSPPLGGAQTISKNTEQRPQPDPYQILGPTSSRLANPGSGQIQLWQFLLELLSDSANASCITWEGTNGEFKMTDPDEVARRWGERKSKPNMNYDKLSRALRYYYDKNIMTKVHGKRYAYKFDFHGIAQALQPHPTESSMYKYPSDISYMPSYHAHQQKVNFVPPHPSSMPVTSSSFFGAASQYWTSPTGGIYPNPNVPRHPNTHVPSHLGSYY
# Chain of UniProt P09874 (whole entry, looked up): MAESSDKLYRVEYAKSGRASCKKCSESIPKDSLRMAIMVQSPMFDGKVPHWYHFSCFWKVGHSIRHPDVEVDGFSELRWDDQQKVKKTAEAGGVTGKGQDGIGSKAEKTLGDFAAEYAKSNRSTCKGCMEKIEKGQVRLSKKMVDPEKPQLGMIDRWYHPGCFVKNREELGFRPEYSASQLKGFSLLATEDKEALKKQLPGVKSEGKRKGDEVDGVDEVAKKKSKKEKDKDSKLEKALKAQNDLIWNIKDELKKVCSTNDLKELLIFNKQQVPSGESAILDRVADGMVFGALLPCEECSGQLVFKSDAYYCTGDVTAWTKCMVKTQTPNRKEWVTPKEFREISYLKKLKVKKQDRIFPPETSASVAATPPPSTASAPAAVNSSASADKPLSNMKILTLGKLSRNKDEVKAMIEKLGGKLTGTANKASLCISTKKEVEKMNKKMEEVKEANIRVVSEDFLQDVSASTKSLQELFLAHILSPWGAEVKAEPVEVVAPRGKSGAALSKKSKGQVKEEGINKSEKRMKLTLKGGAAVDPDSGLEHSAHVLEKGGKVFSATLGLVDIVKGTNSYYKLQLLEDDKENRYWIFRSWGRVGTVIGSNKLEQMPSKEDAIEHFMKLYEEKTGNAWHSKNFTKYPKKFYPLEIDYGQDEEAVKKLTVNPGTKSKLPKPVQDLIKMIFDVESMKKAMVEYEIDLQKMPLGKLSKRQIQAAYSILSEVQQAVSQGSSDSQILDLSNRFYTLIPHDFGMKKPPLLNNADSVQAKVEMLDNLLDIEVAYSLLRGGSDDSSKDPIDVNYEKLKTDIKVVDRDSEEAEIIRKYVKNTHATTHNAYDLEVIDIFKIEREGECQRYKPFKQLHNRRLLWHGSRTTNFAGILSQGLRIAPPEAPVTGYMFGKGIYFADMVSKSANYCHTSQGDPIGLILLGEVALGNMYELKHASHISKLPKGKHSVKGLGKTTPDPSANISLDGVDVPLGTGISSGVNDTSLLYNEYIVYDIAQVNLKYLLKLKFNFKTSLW
# Chain of UniProt Q5NB82 (whole entry, looked up): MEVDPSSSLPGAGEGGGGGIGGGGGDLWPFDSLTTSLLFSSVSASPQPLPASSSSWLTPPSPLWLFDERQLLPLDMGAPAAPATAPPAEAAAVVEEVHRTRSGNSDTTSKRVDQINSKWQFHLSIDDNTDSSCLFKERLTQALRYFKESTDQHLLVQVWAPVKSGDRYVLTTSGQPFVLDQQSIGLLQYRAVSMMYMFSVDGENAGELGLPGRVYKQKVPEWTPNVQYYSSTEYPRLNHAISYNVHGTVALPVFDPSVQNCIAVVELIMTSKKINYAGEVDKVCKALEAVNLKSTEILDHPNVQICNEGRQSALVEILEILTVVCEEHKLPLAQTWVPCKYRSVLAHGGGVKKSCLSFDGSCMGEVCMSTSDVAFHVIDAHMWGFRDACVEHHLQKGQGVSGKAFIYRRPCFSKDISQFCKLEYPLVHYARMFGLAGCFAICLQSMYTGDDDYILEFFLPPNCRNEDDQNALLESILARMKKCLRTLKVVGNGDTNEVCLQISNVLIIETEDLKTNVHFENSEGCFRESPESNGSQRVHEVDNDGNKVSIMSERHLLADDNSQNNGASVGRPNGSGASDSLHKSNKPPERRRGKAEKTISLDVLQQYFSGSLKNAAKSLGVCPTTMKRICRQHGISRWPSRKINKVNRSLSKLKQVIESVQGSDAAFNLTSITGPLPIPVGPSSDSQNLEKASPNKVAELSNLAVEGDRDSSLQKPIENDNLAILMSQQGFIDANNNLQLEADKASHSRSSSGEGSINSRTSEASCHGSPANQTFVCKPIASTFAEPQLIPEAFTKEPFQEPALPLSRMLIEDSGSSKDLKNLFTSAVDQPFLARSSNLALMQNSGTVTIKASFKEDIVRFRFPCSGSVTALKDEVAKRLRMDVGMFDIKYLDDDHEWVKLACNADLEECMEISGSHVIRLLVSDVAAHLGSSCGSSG
# Chain of UniProt Q6L5E5 (whole entry, looked up): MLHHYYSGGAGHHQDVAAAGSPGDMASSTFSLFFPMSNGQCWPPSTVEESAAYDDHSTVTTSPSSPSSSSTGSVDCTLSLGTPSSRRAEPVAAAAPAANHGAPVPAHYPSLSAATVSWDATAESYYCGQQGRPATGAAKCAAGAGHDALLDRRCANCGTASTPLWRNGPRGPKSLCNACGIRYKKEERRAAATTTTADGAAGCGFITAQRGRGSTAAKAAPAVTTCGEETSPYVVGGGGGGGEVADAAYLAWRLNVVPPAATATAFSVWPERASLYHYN
Sequence,target,test,system,conditions,endpoint,value
TTAGGAGGAGAAGGTTCCAAATCCTT (dsDNA),"HSFA4D 1-459 (Oryza sativa, UniProt Q93VB5)",EMSA,"double-stranded DNA, one strand shown",,binding,binds
AATTACTTAGAACTCTCACATTTAACCACGTAATGATCATATCAACGGTGTTATCCAT (dsDNA),"BZIP12 full length assumed (Oryza sativa, UniProt Q0JHF1)",EMSA,"double-stranded DNA, one strand shown",,binding,no binding
ACAGGGTCCTGGGGACAGGGTCCTGGGG (ssDNA (Homo sapiens)),IGF2 fragment (Homo sapiens),affinity MALDI MS,single-stranded DNA,100 nM,binding,no binding
GGCCATCATCAATGAAGATCCCACCAAGGGACAAAA (dsDNA),"GATA15 full length assumed (Oryza sativa, UniProt Q6L5E5)",EMSA,"double-stranded DNA, one strand shown",,binding,binds
GCAGCCCTGGTTAAAAACAAGGTTTATAAATATTGGTTTAAAAGCAGGTTAAAAGACAGGTTAGCGGTGG (ssDNA),"trfA 98-382 G254D/S267L/R327E (Escherichia coli, UniProt P07676)",SPR,single-stranded DNA,,binding,no binding
CTCAGGAATTCCTATAAGGTAATGTGGAGCTCAGTTCAAGTCAATCGGTCC (dsDNA; 5'-amino-C6 primer),"SPT15 full length assumed (Saccharomyces cerevisiae, UniProt P13393)",array,"double-stranded DNA, one strand shown",TBP alone,Kd,2.11 ± 0.21 nM
GCTAGTGCTAGGTGCGTGAAAACGTCGCCCACGTTTTCTAAAACCGGA (dsDNA),"NAC067 1-276 (Oryza sativa, UniProt Q7EZT1)",EMSA,"double-stranded DNA, one strand shown",,binding,binds
"DNA 1 GCTTAGCTTGGAATCGTATCATGTACACTCGTGTGCCGTGTAGACCGTGCC / DNA 2 TGTACATGATACGATTCCAAGCTAAGC / DNA 3 GGCACGGTCTACACGGCACACGAG (dsDNA; nicked duplex, blunt ends, 5'-phosphate)","PARP1 1-1014 (Homo sapiens, UniProt P09874)",fluorescence microscopy,double-stranded DNA,"condensation, without NAD+",binding,binds
ACAAAAGTTTATAAATGACTCGGTGTTTGACATAACTCGGGGTTGTTTTTCTTTGTTAATTCACACACGGGGTTGGTGTATAAATGACTTCGGTGTTTGAAATGT (dsDNA),"WRKY46 1-295 (Arabidopsis thaliana, UniProt Q9SKD9)",EMSA,"double-stranded DNA, one strand shown",,binding,binds
AGGCAAGAUGCUGGCAUAGCUGUUGAACUGGGAACCUGCUAUGCCAACAUAUUGCCAU (structured RNA),Dicer/TRBP (Homo sapiens),EMSA,folded RNA,,binding,binds
GTTGAATGTCACCTAGCTAGCACGTGACCCGCCTTTTCCCCGCACG (dsDNA),"BZR1 1-298 (Oryza sativa, UniProt Q7XI96)",EMSA,"double-stranded DNA, one strand shown",,binding,binds
"CTGGGGGAGTATTGCGGAGGAAA (structured DNA; 5' thiol, 3' methylene blue)",INS 25-54;90-110 (Homo sapiens),square wave voltammetry,folded DNA,20 µM,binding,no binding
AAAAAAAAAAAAAAAAAAAAAAAAAAAAAAAAAAAAAAAAAAAA (ssRNA),"Dentin sialophosphoprotein-like protein 1-828 (Arabidopsis thaliana, UniProt Q9FGR1)",EMSA,RNA,,binding,no binding
GCCUUUUUA (ssRNA),U2AF2,sequencing of bound RNA,RNA,motif only,Kd,4700 nM
ACCAAGCGGGATGCGTAGCCGCCGCCGCCGCCG (dsDNA; blunt),WT1,EMSA,"double-stranded DNA, one strand shown",,binding,no binding
CGTTTGTCGCTGTCACGATGTGGACCGTTCTTCTTTATTTTCACGTGGACCGACTTAATTACCTTCTTTCATTCTTGTTATTTCAATATTTTTTACGTCATTTAAACTCCACTTTACCAAAATAATTTATTTCATTCTTTGAGAGCATCAATTATCAAATAATTCAATTGTCTTTTTTCGTGATAGTTGAATAAGGGAC (dsDNA),"WRKY60 full length assumed (Arabidopsis thaliana, UniProt Q9SK33)",EMSA,"double-stranded DNA, one strand shown",,binding,no binding
GATTCACGATTATTTATATGAAAATATAATAAATATTGAATTTCCTTTGCTATTT (dsDNA),"hb-1 full length assumed (Solanum lycopersicum, UniProt B6GVA3)",EMSA,"double-stranded DNA, one strand shown",,binding,binds
GTGAGATTCAAGTTCTCTCACCGACAACTAACTGATTTTGAAGGCA (dsDNA),"Auxin response factor 1-896 (Populus tomentosa, UniProt A0A8X8DKC4)",EMSA,"double-stranded DNA, one strand shown",,binding,binds
CTCCGTTTCGTGCTACGGTTAGAAAGGCGAAAGCCCCAAGAAATACAAGCACACCTGATAAGCGAGATTTAAGGATAACAGC (dsDNA),"T1, ihfA/ihfB 1-98; 1-95 (Aggregatibacter actinomycetemcomitans)",EMSA,"double-stranded DNA, one strand shown",,binding,binds
GGAACCAGTATTACATAATCCGTACAAGTATGAGCTA (dsDNA; blunt),"him-8 full length assumed (Caenorhabditis elegans, UniProt O18068)","streptavidin pull-down, western blot","double-stranded DNA, one strand shown",1 µM,binding,no binding
GAGCTGCAAGTGGATATTTGGACCTCTTTGAGGTCTTCGTTGGAAACGGGATTTCCTCATATAATGTTACACAGAAGAATTCTCAGTAACTTATTTGTGGTGTGTGTATTCAACTCACAGAGGTGAACCTTCCTTCAGAAAGAGCAGATTTGAAACACTCTTTTTGTACCC (dsDNA),CENP-H/CENP-K 1-247 / 1-269 (Homo sapiens),EMSA,"double-stranded DNA, one strand shown",,binding,no binding
ACCAAGCGGGATGCGGTGCCGCCGCCGCCGCCG (dsDNA; blunt),WT1,EMSA,"double-stranded DNA, one strand shown",,binding,no binding
GAUUUUUCA (ssRNA),U2AF2,sequencing of bound RNA,RNA,motif only,Kd,460 nM
CTTATTTCTTCTTCAACACGGTTTAA (dsDNA),"NAC104 full length assumed (Arabidopsis thaliana, UniProt Q8GWK6)",EMSA,"double-stranded DNA, one strand shown",,binding,binds
CAGCTGCTTCGGGAGTTGTTGGTTGAGGTTCCCAAGGCCA (dsDNA),"Transcription factor 1-552 (Triticum aestivum, UniProt G9DR80)",EMSA,"double-stranded DNA, one strand shown",,binding,binds
CAGAGGATGTGGCTTC (dsDNA),"FLI1 276-375 (Homo sapiens, UniProt Q01543)",X-ray crystallography,"double-stranded DNA, one strand shown",,binding,binds
TTTAGGGTTTAGGGTTTAGGGTTTAGGGTTTAGGGTTTAGGG (ssDNA (Arabidopsis thaliana); single-stranded),"POT1A 1-150 (Arabidopsis thaliana, UniProt Q56Y52)",EMSA,single-stranded DNA,0.25 µM,binding,binds
AGAUU (ssRNA),"SART3 697-786 (Homo sapiens, UniProt Q15020)",ITC,RNA,,binding,no binding
CACAATAACCACTTCCCTAATAATAAAATTTTTTTATTTTTATTTTGGTTCAAAGGCTCACGATGTTCGCCTAATAAAACGAAGTCGCCTATCGGCTCCGCTGATTTTTATATATCACTCTCGGGGCTTTTGGTGTACTATTGTCTTTTGTAATAGCAAGGACACAAAAAGGGTACTCTTCGAGTTTCCTTTTTGACC (dsDNA),ihfA/ihfB 1-98; 1-95,EMSA,"double-stranded DNA, one strand shown",,binding,no binding
TCACCGGTTGCCTGAACCCTTGGGACCCCTCCAAAAGCTTAATTACCC (dsDNA),"NLP3 1-938 (Oryza sativa, UniProt Q5NB82)",EMSA,"double-stranded DNA, one strand shown",,binding,binds
CAATCCTATTGCTTCTATACTTGACACCAATTTTCATACTGATAGATT (dsDNA),"WRKY23 (Oryza sativa, UniProt Q7E0X1)",EMSA,"double-stranded DNA, one strand shown",,binding,binds
CACAAGCACCTCTCTCTCTTCATTAAACAAAAAAAACATAAGCAAAGTTGTATTGAAGTGT (dsDNA),"Protein BZR1 homolog 1-313 (Triticum aestivum, UniProt A0A3B6AUH8)",EMSA,"double-stranded DNA, one strand shown",,binding,no binding
CAGCTGAAGCCATTCCAGTCAACGCTTGCATTTACATTTTTT (dsDNA),"WRKY domain-containing protein 1-700 (Vitis vinifera, UniProt A0ABY9BSD8)",EMSA,"double-stranded DNA, one strand shown",,binding,binds
TGAACAACCCCCCACTAG (dsDNA),"Auxin response factor 1-610 (Capsicum annuum, UniProt A0A1U8F1G4)",EMSA,"double-stranded DNA, one strand shown",,binding,no binding
"DNA 1 ACACTACAATGTTGCAAT / DNA 2 GTATTGCAACATTGTAGT (dsDNA (Drosophila melanogaster); 16 bp, 5' 2 nt overhangs)",dsx fragment (Drosophila melanogaster),EMSA,double-stranded DNA,,binding,binds
TTTTTTTTTTTTTTTTTTTTTTTTTTTTTTTTTTTTTTTTTTTTTTTTTTTTTTTTTTTTTTTTT (ssDNA),yoaA/holC 1-636; 1-147 R128A (Escherichia coli),EMSA,single-stranded DNA,together with: ATPγS,binding,binds
DNA 1 GCTTGACCAATGC / DNA 2 GCATTGGTCAAG (dsDNA; 5' 1-nt overhang),"BCL11A 730-835 (Homo sapiens, UniProt Q9H165)",X-ray crystallography,double-stranded DNA,together with: Zn2+,binding,binds
TTTCTTGGTCCCTGCATGCACGCATGCACTTGGGTCCGGG (dsDNA),"TaB3 1-272 (Triticum aestivum, UniProt A0A3B6ITW4)",EMSA,"double-stranded DNA, one strand shown",,binding,binds
UUUUUUU (ssRNA),"CP29A 97-176 (Arabidopsis thaliana, UniProt Q43349)",NMR titration,RNA,,binding,binds

# Repeated from above:
Sequence,target,test,system,conditions,endpoint,value
GTGAGATTCAAGTTCTCTCACCGACAACTAACTGATTTTGAAGGCA (dsDNA),"Auxin response factor 1-896 (Populus tomentosa, UniProt A0A8X8DKC4)",EMSA,"double-stranded DNA, one strand shown",,binding,binds
CTCCGTTTCGTGCTACGGTTAGAAAGGCGAAAGCCCCAAGAAATACAAGCACACCTGATAAGCGAGATTTAAGGATAACAGC (dsDNA),"T1, ihfA/ihfB 1-98; 1-95 (Aggregatibacter actinomycetemcomitans)",EMSA,"double-stranded DNA, one strand shown",,binding,binds
GGAACCAGTATTACATAATCCGTACAAGTATGAGCTA (dsDNA; blunt),"him-8 full length assumed (Caenorhabditis elegans, UniProt O18068)","streptavidin pull-down, western blot","double-stranded DNA, one strand shown",1 µM,binding,no binding
GAGCTGCAAGTGGATATTTGGACCTCTTTGAGGTCTTCGTTGGAAACGGGATTTCCTCATATAATGTTACACAGAAGAATTCTCAGTAACTTATTTGTGGTGTGTGTATTCAACTCACAGAGGTGAACCTTCCTTCAGAAAGAGCAGATTTGAAACACTCTTTTTGTACCC (dsDNA),CENP-H/CENP-K 1-247 / 1-269 (Homo sapiens),EMSA,"double-stranded DNA, one strand shown",,binding,no binding
ACCAAGCGGGATGCGGTGCCGCCGCCGCCGCCG (dsDNA; blunt),WT1,EMSA,"double-stranded DNA, one strand shown",,binding,no binding
